Measurements from different studies.
Parts stem from different laboratories: compare values within a part only.

Sample 1 — technique: universal PBM; form: double-stranded DNA, one strand shown; sample: in vitro; concentration: 600 nM; direction: higher = stronger binding
Target: Sal-like protein 4, full length isoform A (SALL4, Homo sapiens, UniProt Q9UJQ4, residues 1-1053)
Chain of UniProt Q9UJQ4 (whole entry, looked up): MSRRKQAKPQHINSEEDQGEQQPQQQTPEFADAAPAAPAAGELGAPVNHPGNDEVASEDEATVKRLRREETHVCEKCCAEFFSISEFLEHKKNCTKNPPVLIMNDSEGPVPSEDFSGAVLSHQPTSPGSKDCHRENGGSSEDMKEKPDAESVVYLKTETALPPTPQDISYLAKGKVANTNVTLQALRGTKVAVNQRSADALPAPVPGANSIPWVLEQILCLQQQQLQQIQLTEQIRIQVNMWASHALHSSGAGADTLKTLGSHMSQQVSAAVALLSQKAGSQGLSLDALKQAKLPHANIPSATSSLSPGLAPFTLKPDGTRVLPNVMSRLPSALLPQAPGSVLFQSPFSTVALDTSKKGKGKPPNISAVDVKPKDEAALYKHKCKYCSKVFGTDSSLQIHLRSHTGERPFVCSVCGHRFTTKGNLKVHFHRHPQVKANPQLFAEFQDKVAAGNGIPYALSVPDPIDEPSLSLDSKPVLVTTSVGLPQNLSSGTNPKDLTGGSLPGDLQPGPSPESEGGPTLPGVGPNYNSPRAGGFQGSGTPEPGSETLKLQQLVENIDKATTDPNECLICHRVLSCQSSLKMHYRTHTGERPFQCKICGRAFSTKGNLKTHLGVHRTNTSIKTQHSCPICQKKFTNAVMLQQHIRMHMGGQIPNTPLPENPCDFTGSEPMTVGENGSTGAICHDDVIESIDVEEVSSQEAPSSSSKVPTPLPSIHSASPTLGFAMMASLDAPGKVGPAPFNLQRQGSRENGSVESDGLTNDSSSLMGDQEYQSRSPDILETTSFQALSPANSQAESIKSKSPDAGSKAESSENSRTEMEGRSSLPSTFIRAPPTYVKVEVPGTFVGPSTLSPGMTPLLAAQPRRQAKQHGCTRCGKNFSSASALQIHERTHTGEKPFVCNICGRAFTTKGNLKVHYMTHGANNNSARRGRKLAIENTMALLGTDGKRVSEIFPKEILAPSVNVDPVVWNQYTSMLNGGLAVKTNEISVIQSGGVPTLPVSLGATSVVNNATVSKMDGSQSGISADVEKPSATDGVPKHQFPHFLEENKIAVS
Setting: 8-mer, flanks averaged, mean of replicates
Sequence	E-score
AGTTGCCG	-0.285
GAACTGGA	-0.0076
ATCGGATG	-0.0583
CAGTCCTA	-0.0169
AATTTTTG	0.396
ATGGGGGG	-0.275
CTGAAATA	0.322
GTATGCAA	0.123
GCAATCGA	-0.0795
AATATGAC	0.355
AAACCTGG	-0.186
AATCAAGG	0.111
TCATCGAA	0.138
GAGTAATC	0.153
AAGGAATA	0.211
AGGACCTG	-0.204
GACGGGAA	-0.0551
GCGAAAAA	0.147
ACCGTACC	-0.259
AACCCGCT	-0.269

Sample 2 — technique: RNA Bind-n-Seq; form: RNA; sample: in vitro; concentration: 365 nM; reference: no-protein control; direction: higher = stronger binding
Target: RNA binding protein fox-1 homolog 2, RRM domain, GST-SBP tag (RBFOX2, Homo sapiens, UniProt O43251-10, residues 100-194)
Setting: natural RNA segment, single round, ends assumed
Construct (chain): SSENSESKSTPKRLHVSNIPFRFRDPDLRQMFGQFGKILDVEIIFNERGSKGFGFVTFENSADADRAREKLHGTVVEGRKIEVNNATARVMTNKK
Sequence	RBNS enrichment (R)
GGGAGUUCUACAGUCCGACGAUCCAUUUACCAUGAAUUUACUUCCUCCCAAGAGUUUGGACUGCCCGUCAGAUUGUUGCUGCACAUAGUUGCCUUUGUAUCUCUGUAUGAAAUAAAAGGUCAUUUGUUCAUGUUGGAAUUCUCGGGUGCCAA	0.326
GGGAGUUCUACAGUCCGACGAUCUCUGGAAUUGAUGUUUACAUGUCUGUUGUUGGUCAUCUCUCCUGUGUCUUAAAUACUUUAAUGUUGGAAGAGCAUAGUGUUUGGGCUAGUGGGUUUCUGACAGCCCAUGGUGGAAUUCUCGGGUGCCAA	0.49
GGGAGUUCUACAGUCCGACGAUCGUUUGUGGCUGGGGGCAGGAGGGCCCUACCUGAUUGGUGCAACCCUUACCCCUUAGCCUCCCUGAAAAUGUUUUUCUGCCAGGGAGCUUGAAAGUUUUCAGAACCUCUUCUGGAAUUCUCGGGUGCCAA	0.303
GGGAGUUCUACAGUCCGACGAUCUAGCAGAAGAUUUAGCCAUGUCCUUCCCCUCACUUGUGUGAGUGGCCCCUUCUGAAUCUCUCCAGCAGCCAGAGGCACGUGAGAAGCAGAAAGAGCUGGUAAAUAAAGCCUGGAAUUCUCGGGUGCCAA	0.434
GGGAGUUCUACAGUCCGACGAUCUGUGAGGUCUUGCACAAGCCACGUGGGGCACCUUGGCUUCCCGGCAGGAGGUGGACACCCAGCCAGAGGCCUGGCUCAAGGUGACCUCACCUUCACCAUGGGCUUCCUGGUGGAAUUCUCGGGUGCCAA	0.371
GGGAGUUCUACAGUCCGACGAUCUUAGUGCUCGGUUCCCUGAGAAGCCUGAGAAAAGCUUCCCCAACCAAAUGUUCUUAAAGACUUUUUGCUAUGUAGUAUCUACCUUGUAGAAACCUUGCAGAUUGCAGAGUUGGAAUUCUCGGGUGCCAA	0.348
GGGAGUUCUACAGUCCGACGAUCGAGAGGGCAUAGUUCUCCAGAGCGUCAAGGUUUCCUGAAGUUUUCAAAAGCUGCUGUCACAAUUUCAUUCCGAGGCCAUCUUGCCCCUCCCCCUUCACUCUGCCUUCCUGUGGAAUUCUCGGGUGCCAA	0.63
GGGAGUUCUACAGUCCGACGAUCGCCUCAAACUGCCAUUCACAGUGGUACUGUGAUCCAGACCCCUGAGUGCCACAGGAAGGGUAGGCCCUGGGACAGUGGCUUCAAGUGUCUUUGAGCAAGUAGGCAAGAUAUGGAAUUCUCGGGUGCCAA	0.32
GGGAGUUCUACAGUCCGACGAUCACUCUAGGGCCAGACCACUCUCUGUAUGGACCAGACCAUCUUCCCAAACCCAUGGUGCUUUCCCCCCGACCCCACUCAACCUACAUUCUGAGGAGGGGAGGGAUGGAUCAUGGAAUUCUCGGGUGCCAA	0.269
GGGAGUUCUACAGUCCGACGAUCUUCUCAUUCUACAUAUAAUUUUGUUUAUUUCAGAUAAUUUUAUGUAAACAAAUUAAGAGUUAUUCAUUCAAAUUUUUUGCAGUGUUAAUCUGUAAAUGAUGGCUUGAUGUUGGAAUUCUCGGGUGCCAA	0.857
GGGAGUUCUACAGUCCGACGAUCACUUCCAAGAAACAGUUCUGGCCCAAACCAGACUAUCCCUUCCCCAACAGUUCUCACUGCCUGGCCUUUGGAAGGUCACUUAACAUUUGUUGUUGUUUUGUUUUGUUUUUUGGAAUUCUCGGGUGCCAA	0.377
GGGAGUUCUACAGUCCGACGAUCCAAGCUAUGCCAAGGUCAGAGCCACGGGCAUCUAGAAGGCAUCCACUCUGCUCAAGAGACGGAUGCACUCCUGCGCCCCGGUCUUCGGCCUGGACCCCACACGUUCAUAGUGGAAUUCUCGGGUGCCAA	0.279

Sample 3 — technique: RNA Bind-n-Seq; form: RNA; sample: in vitro; concentration: not given; reference: input RNA pool; direction: higher = stronger binding
Target: RING finger protein unkempt homolog, zinc fingers 1-6, GST-SBP tag (UNK, Homo sapiens, UniProt Q9C0B0, residues 30-357)
Setting: RNA with constant flanks, human-mouse chimeric sites, ends assumed
Construct (chain): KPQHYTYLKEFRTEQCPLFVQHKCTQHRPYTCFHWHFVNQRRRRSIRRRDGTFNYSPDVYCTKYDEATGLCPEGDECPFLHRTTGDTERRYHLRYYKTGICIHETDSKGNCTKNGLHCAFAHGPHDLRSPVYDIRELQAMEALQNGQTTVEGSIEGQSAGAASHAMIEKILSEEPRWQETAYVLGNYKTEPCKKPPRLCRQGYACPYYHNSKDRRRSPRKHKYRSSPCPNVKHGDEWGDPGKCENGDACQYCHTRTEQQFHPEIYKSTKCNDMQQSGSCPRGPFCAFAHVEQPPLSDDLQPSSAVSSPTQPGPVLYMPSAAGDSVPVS
Sequence	bound/input enrichment [ratio]
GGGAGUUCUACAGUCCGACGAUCACCUCCCAGGCCUGGGACACCCCACCCCCGCUUUUUGAAAGUGUGUUGGCGUUUCUUUUCCUUCCCCAUACAAAGUGAUUACAGUUUCCCCCGCAAGGGUCUAUCGAAGGGCUUGACGGACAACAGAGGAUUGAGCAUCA	0.494
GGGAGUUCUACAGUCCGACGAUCGUGACUGGUGUUAAGAUUUCCCCUCAGAAAAGAACUGCAGUAGUCACCAUAAUUCCAUCUAUAGUGAGUGCCAGUCAGAUUGUGGAGCUGGUCCCAGACCUCAGUUUAGACAUGGGAACUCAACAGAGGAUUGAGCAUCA	0.684
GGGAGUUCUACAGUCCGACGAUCCACACACUCUUCUGCGGGACCCUCAUCUUGCAGGCCCGGGCCUAUGUGGGACCGCACGUGCUAGCAGUGGUGACCCGCACAGGGUUCUGCACGGCAAAAGGGGGCCUGGUGAGCUCCAUCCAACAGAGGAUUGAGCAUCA	0.0953
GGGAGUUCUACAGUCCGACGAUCUCUGGUCACACUCGUGUGUAUGGUGUUUGCUUUGUGGACACUUCACUGGGAAAGUUUUUCAUAGGUCAGUUUUCGGAUGACCGCCACUGUUCCAGAUUUAGGACGCUAGUGGCUCACUAUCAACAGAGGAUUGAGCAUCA	0.378
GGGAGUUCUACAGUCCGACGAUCGCGGCAGAAUCAUGGAGGACAUAAUGCAGCUCCCCAAGUCGCGCAUCAACGCCAGCAUGUUACCACAGUAUAUCGACCGGCCCGUGUGCUUCGUGGGGAGGCUGGAAAAGAUUCAUCCCACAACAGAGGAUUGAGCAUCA	0.0776
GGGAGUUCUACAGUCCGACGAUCCGCAGAAGGUUAAAGGGUGAAAAUGGGGUGGAAGACUGUGUCAUGGCUCUGGAGACACUGUUCAGUGUCCUGCUUUCUCUGUGCAGACUGAUGGCCCCUUACACGCCCUUUCUGACUGAGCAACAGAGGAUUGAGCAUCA	0.0554
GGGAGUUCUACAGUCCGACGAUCAUGGAACAUUUCGAUGCGUCACUCAGUACCUAUUUCAAGGCAUUGCUGGGCCCCCGAGAUACAAGAGUCAAAGGAUGGUUCCUCCUGGACAAUUACAUCCCUACGUUUAUCUGCUCUGUUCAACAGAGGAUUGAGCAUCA	0.115
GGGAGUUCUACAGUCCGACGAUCACUCAGAGAUCCACCUCCCAAAGUGCUGGGAGUAAAGUCUGAUAUUACACACCUAACUUGAUGGAUAUAUAUUUUUUUUAAUAUGAAUCUUCCUGUUCGUCCAGGGAAGAAAGAUUUGUUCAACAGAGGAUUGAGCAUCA	0.863
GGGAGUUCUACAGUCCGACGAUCUCCCAAAUCCAGCAGCUAGAAGGAGCCUUGAGACAAACACUCCACACACAGGGAAGGCGAUAACAUUGUACAUUGGUUUACAUUUUUUCCCCCUGUGUUUUCUAGGGUCCUAGUGCUUGCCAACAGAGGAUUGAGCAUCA	0.222
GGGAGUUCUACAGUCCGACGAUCUCUUUAAAAAAAAAAUUACCUUUUCUGACAGUGCUUUCCCUCCCAUAGAUCCACGUUCACACUAGAAGAGCAAAGGCUUUGCACGGAGCUCAAACAUCUGAUGAAGAUUUUUGAGACAGACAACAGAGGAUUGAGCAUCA	1.94
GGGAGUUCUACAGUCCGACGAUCCUGGCACUCUAUCAGAUAUAUUAAUUUUUUAAUGUAGAUGUAAUUUUAAAAAUGAAUGGCUACUUUACGUGAUAGAUUAGGGUUUUACUAUAUAUGUGUACAUAUGUAUAUAUAUAUAUACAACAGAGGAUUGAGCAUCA	4.74

Sample 4 — technique: protein binding microarray; form: double-stranded DNA, one strand shown; sample: in vitro; concentration: not given; reference: not given; direction: higher = stronger binding
Target: Histone acetyltransferase KAT6A, winged helix 1, GST fusion (KAT6A, Homo sapiens, UniProt Q92794, residues 1-85)
Setting: 8-mer, flanks averaged, mean of 2 arrays, mostly near background
Residues (chain): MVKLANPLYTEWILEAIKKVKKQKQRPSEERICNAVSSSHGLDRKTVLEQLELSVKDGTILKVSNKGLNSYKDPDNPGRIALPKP
Sequence	E-score
AATGAACT	-0.155
CGCCCACA	0.0428
CGTAAGGC	0.0994
ACTCTAGA	-0.241
GTGGGTAA	-0.077
AGATCCAT	-0.0703
TCCGCCAA	0.158
ATCGAAAC	0.0653
GGGGTACA	-0.0663
AGCGAATG	-0.0224
ATATACCA	-0.202
ACCCCACT	-0.298
ATCATGAC	-0.291
GAGTAGTA	0.00557
AGGCTGGC	-0.109
ACGCTGCC	0.221
GCAAATCA	-0.0342
ACAACACT	-0.202
AAATTTCA	-0.357
GTGAAAGA	-0.139
GAGCAGTA	-0.227
CTCTTGGA	-0.116

Excerpt of the above (sample 2):
Sequence	RBNS enrichment (R)
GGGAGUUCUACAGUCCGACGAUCCAUUUACCAUGAAUUUACUUCCUCCCAAGAGUUUGGACUGCCCGUCAGAUUGUUGCUGCACAUAGUUGCCUUUGUAUCUCUGUAUGAAAUAAAAGGUCAUUUGUUCAUGUUGGAAUUCUCGGGUGCCAA	0.326
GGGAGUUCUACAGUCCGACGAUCACUCUAGGGCCAGACCACUCUCUGUAUGGACCAGACCAUCUUCCCAAACCCAUGGUGCUUUCCCCCCGACCCCACUCAACCUACAUUCUGAGGAGGGGAGGGAUGGAUCAUGGAAUUCUCGGGUGCCAA	0.269
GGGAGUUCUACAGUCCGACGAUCGCCUCAAACUGCCAUUCACAGUGGUACUGUGAUCCAGACCCCUGAGUGCCACAGGAAGGGUAGGCCCUGGGACAGUGGCUUCAAGUGUCUUUGAGCAAGUAGGCAAGAUAUGGAAUUCUCGGGUGCCAA	0.32
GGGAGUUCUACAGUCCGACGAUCUUAGUGCUCGGUUCCCUGAGAAGCCUGAGAAAAGCUUCCCCAACCAAAUGUUCUUAAAGACUUUUUGCUAUGUAGUAUCUACCUUGUAGAAACCUUGCAGAUUGCAGAGUUGGAAUUCUCGGGUGCCAA	0.348
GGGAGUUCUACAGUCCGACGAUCUCUGGAAUUGAUGUUUACAUGUCUGUUGUUGGUCAUCUCUCCUGUGUCUUAAAUACUUUAAUGUUGGAAGAGCAUAGUGUUUGGGCUAGUGGGUUUCUGACAGCCCAUGGUGGAAUUCUCGGGUGCCAA	0.49
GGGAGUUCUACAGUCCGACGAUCCAAGCUAUGCCAAGGUCAGAGCCACGGGCAUCUAGAAGGCAUCCACUCUGCUCAAGAGACGGAUGCACUCCUGCGCCCCGGUCUUCGGCCUGGACCCCACACGUUCAUAGUGGAAUUCUCGGGUGCCAA	0.279
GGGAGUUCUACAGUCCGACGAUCGUUUGUGGCUGGGGGCAGGAGGGCCCUACCUGAUUGGUGCAACCCUUACCCCUUAGCCUCCCUGAAAAUGUUUUUCUGCCAGGGAGCUUGAAAGUUUUCAGAACCUCUUCUGGAAUUCUCGGGUGCCAA	0.303
